Published values pooled from the literature.
A part holds a random share of what one study measured. Values joined by “and” are separate records of one study, mostly repeats; a detail may differ.
Sequence of UniProt Q8TDC3 (whole entry, looked up): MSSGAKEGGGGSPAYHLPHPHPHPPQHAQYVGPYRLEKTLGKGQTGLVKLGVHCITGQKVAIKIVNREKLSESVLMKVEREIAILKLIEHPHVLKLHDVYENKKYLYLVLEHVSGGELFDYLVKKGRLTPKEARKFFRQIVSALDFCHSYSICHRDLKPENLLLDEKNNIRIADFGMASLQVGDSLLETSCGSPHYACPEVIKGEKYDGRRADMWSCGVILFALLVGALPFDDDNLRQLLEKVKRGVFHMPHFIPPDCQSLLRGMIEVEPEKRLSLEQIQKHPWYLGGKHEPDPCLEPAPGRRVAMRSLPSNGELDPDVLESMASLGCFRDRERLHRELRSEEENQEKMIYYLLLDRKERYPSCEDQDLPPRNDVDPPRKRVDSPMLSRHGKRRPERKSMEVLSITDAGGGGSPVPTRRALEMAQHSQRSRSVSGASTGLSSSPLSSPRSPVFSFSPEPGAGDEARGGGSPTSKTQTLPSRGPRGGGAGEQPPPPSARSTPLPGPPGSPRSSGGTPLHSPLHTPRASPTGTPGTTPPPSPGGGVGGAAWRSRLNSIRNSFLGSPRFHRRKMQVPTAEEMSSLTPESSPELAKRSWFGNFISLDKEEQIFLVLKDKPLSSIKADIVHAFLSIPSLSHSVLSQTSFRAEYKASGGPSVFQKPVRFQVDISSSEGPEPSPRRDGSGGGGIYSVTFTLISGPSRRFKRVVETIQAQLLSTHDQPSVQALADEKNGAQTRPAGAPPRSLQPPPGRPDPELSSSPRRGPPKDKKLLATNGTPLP
Sequence of UniProt Q9BVS4 (whole entry, looked up): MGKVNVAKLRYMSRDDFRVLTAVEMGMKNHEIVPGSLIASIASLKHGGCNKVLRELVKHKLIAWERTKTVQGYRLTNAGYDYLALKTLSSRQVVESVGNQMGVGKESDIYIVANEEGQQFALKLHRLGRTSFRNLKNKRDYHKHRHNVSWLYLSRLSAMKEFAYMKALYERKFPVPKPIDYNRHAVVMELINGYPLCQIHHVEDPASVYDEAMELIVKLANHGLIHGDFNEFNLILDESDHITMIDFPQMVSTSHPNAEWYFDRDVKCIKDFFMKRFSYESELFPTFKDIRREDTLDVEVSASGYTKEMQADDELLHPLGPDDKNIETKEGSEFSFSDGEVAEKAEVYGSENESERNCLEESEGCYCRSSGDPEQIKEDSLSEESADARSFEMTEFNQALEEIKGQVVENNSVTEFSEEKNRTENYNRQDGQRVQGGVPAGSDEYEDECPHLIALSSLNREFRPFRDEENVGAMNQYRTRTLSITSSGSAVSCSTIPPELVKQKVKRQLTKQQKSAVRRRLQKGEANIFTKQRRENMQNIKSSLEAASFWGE
Sequence of UniProt Q13237 (whole entry, looked up): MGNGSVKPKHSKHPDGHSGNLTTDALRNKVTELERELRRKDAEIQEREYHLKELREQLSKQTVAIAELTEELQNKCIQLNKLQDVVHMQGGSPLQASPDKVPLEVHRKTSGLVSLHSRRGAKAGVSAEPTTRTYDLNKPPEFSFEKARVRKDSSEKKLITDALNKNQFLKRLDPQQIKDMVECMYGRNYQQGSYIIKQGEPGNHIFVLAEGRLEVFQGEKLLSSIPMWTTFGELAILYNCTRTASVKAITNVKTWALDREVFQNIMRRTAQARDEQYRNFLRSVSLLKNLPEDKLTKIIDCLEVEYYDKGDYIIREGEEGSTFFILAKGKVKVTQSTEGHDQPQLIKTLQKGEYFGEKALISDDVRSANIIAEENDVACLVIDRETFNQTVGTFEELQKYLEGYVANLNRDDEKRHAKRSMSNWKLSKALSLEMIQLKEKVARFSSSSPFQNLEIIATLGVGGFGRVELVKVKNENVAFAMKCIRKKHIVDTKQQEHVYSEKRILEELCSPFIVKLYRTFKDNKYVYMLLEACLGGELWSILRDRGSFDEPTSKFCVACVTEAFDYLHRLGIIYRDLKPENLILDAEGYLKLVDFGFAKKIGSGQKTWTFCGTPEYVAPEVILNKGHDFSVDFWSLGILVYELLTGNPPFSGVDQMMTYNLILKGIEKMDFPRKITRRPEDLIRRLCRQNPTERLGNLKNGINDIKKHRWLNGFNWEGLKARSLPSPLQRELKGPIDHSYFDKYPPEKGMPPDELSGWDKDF
Sequence of UniProt Q6ZWH5 (whole entry, looked up): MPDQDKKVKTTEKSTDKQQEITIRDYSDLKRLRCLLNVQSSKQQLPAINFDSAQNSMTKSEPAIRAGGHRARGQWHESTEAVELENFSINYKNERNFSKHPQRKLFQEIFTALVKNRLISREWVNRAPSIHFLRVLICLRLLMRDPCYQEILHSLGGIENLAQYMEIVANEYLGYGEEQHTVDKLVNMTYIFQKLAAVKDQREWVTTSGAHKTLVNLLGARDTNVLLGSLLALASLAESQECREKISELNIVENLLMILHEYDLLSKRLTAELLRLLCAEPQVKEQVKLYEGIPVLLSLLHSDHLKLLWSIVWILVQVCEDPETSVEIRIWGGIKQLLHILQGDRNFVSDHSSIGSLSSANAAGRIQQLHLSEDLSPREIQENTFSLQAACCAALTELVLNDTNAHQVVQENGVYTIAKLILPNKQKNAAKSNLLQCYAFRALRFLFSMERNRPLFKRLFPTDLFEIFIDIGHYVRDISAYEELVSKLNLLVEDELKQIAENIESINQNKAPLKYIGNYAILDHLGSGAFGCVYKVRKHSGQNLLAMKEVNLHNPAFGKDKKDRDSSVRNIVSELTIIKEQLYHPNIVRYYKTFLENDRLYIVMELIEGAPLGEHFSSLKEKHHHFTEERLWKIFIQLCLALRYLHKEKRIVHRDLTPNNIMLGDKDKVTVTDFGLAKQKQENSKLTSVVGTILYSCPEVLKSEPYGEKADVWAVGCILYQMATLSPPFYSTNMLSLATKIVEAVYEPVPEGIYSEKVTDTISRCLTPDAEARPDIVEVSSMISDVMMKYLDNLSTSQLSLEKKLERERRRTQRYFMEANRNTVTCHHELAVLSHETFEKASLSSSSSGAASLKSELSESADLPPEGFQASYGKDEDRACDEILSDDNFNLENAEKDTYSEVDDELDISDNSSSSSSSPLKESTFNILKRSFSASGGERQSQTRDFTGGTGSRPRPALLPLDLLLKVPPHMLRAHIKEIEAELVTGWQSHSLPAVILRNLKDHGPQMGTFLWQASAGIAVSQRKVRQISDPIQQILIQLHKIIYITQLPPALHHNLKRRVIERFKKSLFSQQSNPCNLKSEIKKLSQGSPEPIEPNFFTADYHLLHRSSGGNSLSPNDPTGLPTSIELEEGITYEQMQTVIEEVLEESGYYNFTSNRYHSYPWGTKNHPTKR
Sequence of UniProt Q8TF76 (whole entry, looked up): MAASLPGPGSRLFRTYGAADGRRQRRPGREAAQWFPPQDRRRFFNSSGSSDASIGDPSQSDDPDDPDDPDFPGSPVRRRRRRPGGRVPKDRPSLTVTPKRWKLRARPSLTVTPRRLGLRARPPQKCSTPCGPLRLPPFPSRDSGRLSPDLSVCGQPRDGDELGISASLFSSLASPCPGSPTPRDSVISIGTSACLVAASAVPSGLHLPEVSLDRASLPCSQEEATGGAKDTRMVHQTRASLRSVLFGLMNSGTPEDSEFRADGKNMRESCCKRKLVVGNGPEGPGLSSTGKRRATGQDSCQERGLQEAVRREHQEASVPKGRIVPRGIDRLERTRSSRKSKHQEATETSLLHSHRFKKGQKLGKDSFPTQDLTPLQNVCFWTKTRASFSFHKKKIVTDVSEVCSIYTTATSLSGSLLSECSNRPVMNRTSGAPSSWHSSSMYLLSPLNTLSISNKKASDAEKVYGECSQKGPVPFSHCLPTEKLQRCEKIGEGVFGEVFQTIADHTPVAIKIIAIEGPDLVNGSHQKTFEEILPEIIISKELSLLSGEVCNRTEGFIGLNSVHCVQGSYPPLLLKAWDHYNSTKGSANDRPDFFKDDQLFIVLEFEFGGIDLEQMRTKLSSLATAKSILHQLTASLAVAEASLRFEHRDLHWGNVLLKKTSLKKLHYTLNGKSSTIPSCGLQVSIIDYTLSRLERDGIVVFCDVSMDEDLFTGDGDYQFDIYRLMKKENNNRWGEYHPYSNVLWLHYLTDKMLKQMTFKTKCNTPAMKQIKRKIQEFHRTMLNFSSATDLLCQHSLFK
Sequence of UniProt Q13705 (whole entry, looked up): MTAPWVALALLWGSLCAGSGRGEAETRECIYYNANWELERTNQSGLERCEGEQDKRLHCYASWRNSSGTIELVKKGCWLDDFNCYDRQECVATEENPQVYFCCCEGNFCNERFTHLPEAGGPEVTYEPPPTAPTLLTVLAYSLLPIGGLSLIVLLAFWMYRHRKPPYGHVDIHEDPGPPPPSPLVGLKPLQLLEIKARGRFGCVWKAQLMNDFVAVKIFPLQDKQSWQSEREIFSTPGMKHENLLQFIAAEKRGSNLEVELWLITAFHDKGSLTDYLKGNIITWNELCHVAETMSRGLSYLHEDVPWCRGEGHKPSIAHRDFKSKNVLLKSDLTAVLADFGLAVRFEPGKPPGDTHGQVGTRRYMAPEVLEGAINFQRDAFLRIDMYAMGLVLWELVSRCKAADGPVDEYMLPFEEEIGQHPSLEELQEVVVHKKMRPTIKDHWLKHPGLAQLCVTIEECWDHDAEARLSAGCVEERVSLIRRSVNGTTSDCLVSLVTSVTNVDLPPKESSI

Study 1 — observed: enzyme activity; tested at: 5 µM; baseline: untreated control
SMILES: O=C(Nc1cnn(-c2csc(C(=O)NC3COC3)c2)c1)Nc1ccccc1Cl
It gave 98.5% for remaining activity (FGFR1 (Homo sapiens, UniProt P11362)).
BRSK1 (Homo sapiens, UniProt Q8TDC3) — remaining activity: 84.5%.
It gave 90.5% for remaining activity (MYLK3 (Homo sapiens, UniProt Q32MK0)).
The remaining activity was 80.1% (MAP4K4 (Homo sapiens, UniProt O95819)).
It gave 95% for remaining activity (DCLK1 (Homo sapiens, UniProt O15075)).

Study 2 — observed: enzyme activity; action: inhibitor; tested at: 10 µM
Target: Calcium/calmodulin-dependent protein kinase type II subunit alpha (CAMK2A, Homo sapiens, UniProt Q9UQM7)
Sequence of UniProt Q9UQM7 (whole entry, looked up): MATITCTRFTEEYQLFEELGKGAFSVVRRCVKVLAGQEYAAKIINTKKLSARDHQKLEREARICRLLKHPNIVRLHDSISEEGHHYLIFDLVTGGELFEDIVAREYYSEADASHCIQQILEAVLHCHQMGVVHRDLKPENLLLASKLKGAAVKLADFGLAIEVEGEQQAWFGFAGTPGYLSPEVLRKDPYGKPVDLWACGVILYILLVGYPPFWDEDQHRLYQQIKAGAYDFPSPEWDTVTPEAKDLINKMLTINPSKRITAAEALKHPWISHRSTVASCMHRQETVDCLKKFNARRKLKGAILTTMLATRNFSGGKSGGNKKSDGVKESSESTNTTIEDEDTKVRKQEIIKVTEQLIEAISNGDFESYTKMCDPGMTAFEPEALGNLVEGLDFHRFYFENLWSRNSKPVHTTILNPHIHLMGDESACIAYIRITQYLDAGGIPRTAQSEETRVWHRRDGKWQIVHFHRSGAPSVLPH
With `COc1cc2c(cc1O)[C@@H](Cc1ccc(O)c(Oc3ccc(C[C@@H]4c5cc(OC)c(OC)cc5CCN4C)cc3)c1)N(C)CC2` the inhibition was -4%.
`C[C@]12CCC(=O)C=C1[C@@H]1C[C@@H]1[C@H]1[C@@H]3[C@@H]4C[C@@H]4[C@@]4(CCC(=O)O4)[C@@]3(C)CC[C@@H]12` has an inhibition of 3%.
`C[C@@H]1O[C@@H](O[C@H]2[C@H](O[C@H]3[C@H](O[C@H]4CC[C@@]5(C)[C@@H](CC[C@]6(C)[C@@H]5CC=C5[C@@H]7CC(C)(C)C[C@@H](O)[C@]7(C)CC[C@]56C)[C@@]4(C)CO)O[C@H](C(=O)O)[C@@H](O)[C@@H]3O)O[C@H](CO)[C@H](O)[C@@H]2O)[C@H](O)[C@H](O)[C@H]1O` gave an inhibition of 13%.
With `COc1ccc(-c2oc3cc(O)cc(O)c3c(=O)c2O)cc1` the inhibition was 35%.
For `CN1C[C@H](C(=O)N[C@]2(C)O[C@@]3(O)[C@@H]4CCCN4C(=O)[C@H](Cc4ccccc4)N3C2=O)C[C@@H]2c3cccc4[nH]cc(c34)C[C@H]21`, the inhibition was -12%.
For `CC1(C)CCC2(CO)C(=C3C=CC4C5(C)CCC(OC6OC(COC7OC(CO)C(O)C(O)C7O)C(OC7OC(CO)C(O)C(O)C7O)C(O)C6O)CC5C(C)(CO)CC4(C)C3(C)CC2O)C1` (stereo not shown), the inhibition was -26%.
`OC[C@H]1O[C@@](CO)(OC[C@@]2(OC[C@@]3(OC[C@@]4(OC[C@@]5(OC[C@@]6(OC[C@@]7(O[C@H]8O[C@H](CO)[C@@H](O)[C@H](O)[C@H]8O)O[C@H](CO)[C@@H](O)[C@@H]7O)O[C@H](CO)[C@@H](O)[C@@H]6O)O[C@H](CO)[C@@H](O)[C@@H]5O)O[C@H](CO)[C@@H](O)[C@@H]4O)O[C@H](CO)[C@@H](O)[C@@H]3O)O[C@H](CO)[C@@H](O)[C@@H]2O)[C@@H](O)[C@@H]1O` has an inhibition of 2%.

Study 3 — technique: CellTiter-Glo
Structure (SMILES): CO[C@@H]1[C@@H](OC(N)=O)[C@@H](O)[C@H](Oc2ccc3c(O)c(NC(=O)c4ccc(O)c(CC=C(C)C)c4)c(=O)oc3c2C)OC1(C)C
RPE-1 wild type; 200 µM, 6 days; baseline: untreated — viability: 91.5% and 98.2%.
RPE-1 BRCA1-/- PARPi-resistant R4; 100 µM, 6 d — viability: 66.3% and 57.7%.
The viability was 2.3% (MDA-MB-436 (BRCA1-mutant); 200 µM, 6 days; baseline: untreated).
It gave 100% and 93.5% and 94.2% and 96.2% and 67.9% and 77% for viability (MDA-MB-436 PARPi-resistant; 25 µM, 6 days; baseline: untreated).
The viability was 42.4% (RPE-1 BRCA1-/- PARPi-resistant R3; 200 µM, 6 d).
It gave 88.1% for viability (UWB1.289 parental; 6.25 µM, 6 days; baseline: untreated).

Study 4 — observed: cell-free assay; technique: competition with immobilised ligand; tested at: 1 µM
SMILES: O=C(NCc1ncc(C(F)(F)F)cc1Cl)c1ccc2c(c1)C1(CCS(=O)(=O)CC1)[C@@H](C1CC1)N2S(=O)(=O)c1ccc(F)cc1
The remaining binding was 83% (NEK10 (Homo sapiens, UniProt Q6ZWH5)).
For FLT3 (Homo sapiens, UniProt P36888, D835V/ITD): remaining binding read 67%.
For HASPIN (Homo sapiens, UniProt Q8TF76): remaining binding read 77%.
For GRK4 (Homo sapiens, UniProt P32298): remaining binding read 100%.
ACVR2B (Homo sapiens, UniProt Q13705) — remaining binding: 100%.
For OXSR1 (Homo sapiens, UniProt O95747): remaining binding read 71%.
It gave 100% for remaining binding (PIP4K2C (Homo sapiens, UniProt Q8TBX8)).
For HIPK4 (Homo sapiens, UniProt Q8NE63): remaining binding read 97%.
The remaining binding was 77% (RIOK2 (Homo sapiens, UniProt Q9BVS4)).
It gave 100% for remaining binding (FLT3 (Homo sapiens, UniProt P36888, K663Q)).
MAP3K19 (Homo sapiens, UniProt Q56UN5) — remaining binding: 69%.
It gave 89% for remaining binding (PRKG2 (Homo sapiens, UniProt Q13237)).
CDK8 (Homo sapiens, UniProt P49336) — remaining binding: 63%.

Excerpt of the above (study 4):
For HASPIN (Homo sapiens, UniProt Q8TF76): remaining binding read 77%.
For GRK4 (Homo sapiens, UniProt P32298): remaining binding read 100%.
